Measured values gathered from unrelated publications.
A part holds a random share of what one study measured.

Study 1
Target: Replicase polyprotein 1ab, polymerase (rep, Severe acute respiratory syndrome coronavirus 2, UniProt P0DTD1)
Observed: enzyme activity
Mode: inhibitor
Tested at: 20 µM
Structure (SMILES)	inhibition [%]
CCC(=O)O[C@]1(C(=O)CCl)[C@@H](C)C[C@H]2[C@@H]3C[C@H](F)C4=CC(=O)C=C[C@]4(C)[C@@]3(F)[C@@H](O)C[C@@]21C	1.81
N#Cc1cc(-c2n[nH]c(-c3ccncc3)n2)ccn1	-0.9
C[C@H](N)Cn1ccc2cc(F)c(Cl)cc21	-0.61
NS(=O)(=O)c1cc(-c2nnn[nH]2)c(NCc2cccs2)cc1Cl	6.52
C=CCN1C[C@H](C)N([C@H](c2ccc(C(=O)N(CC)CC)cc2)c2cccc(O)c2)C[C@H]1C	-1.62
NCCNc1ccc(NCCN)c2c1C(=O)c1ccncc1C2=O	95.6
O=C1CCC[C@@H]2[C@H]3CCCN4CCC[C@@H](CN12)[C@@H]34	-1.86
CCCCCCCC/C=C\CCCCCCCC(=O)N[C@@H](CO)Cc1ccc(O)cc1	-0.14
CCc1nc(N)nc(N)c1-c1ccc(Cl)cc1	6.28
O=C(NCCO)c1cc(C(=O)NCCO)cc(C(=O)NCCO)c1	-9.09
N#Cc1cn([C@@H]2O[C@H](CO)[C@@H](O)[C@H]2O)c2ncnc(N)c12	2.67
O=C(/C=C/c1ccc(CN(CCO)CCc2c[nH]c3ccccc23)cc1)NO	-7.52
OC[C@H]1O[C@@H](n2cnc3c(NC4CCCC4)ncnc32)[C@H](O)[C@@H]1O	1.93
O=C(O)c1cccnc1Nc1cccc(C(F)(F)F)c1	27.4
CCC(=O)c1cc(-c2ccc(Cl)cc2)n(-c2ccc(S(N)(=O)=O)cc2)c1C	1.1
O=C1Nc2ccccc2C12OCC1(CO2)COC2(OC1)C(=O)Nc1ccccc12 (stereo not drawn)	3.85
CCCN1CCC[C@H](c2cccc(O)c2)C1	-0.17
CCCCCCCCCCCCCCCC(=O)OC[C@@H](NC(=O)C(Cl)Cl)[C@H](O)c1ccc([N+](=O)[O-])cc1	0.81
Nc1ccccc1S(N)(=O)=O	-0.87
Nc1c2c(nc3c1CCC3)CCCC2	1.04
CCCC(CCC)C(=O)O[C@H]1C[C@H]2CC[C@@H](C1)[N+]2(C)C	-4.09
O=C1CC2(CCCC2)CC(=O)N1CCCCN1CCN(c2ncccn2)CC1	1.98
CCN(CC)CCNC(=O)c1c(C)[nH]c(/C=C2\C(=O)Nc3ccc(F)cc32)c1C	6.23
N#CC(c1ccc(Cl)cc1)c1c(Cl)cc(-n2ncc(=O)[nH]c2=O)cc1Cl (stereo not drawn)	3.89
CC(C)(Sc1cc(C(C)(C)C)c(O)c(C(C)(C)C)c1)Sc1cc(C(C)(C)C)c(O)c(C(C)(C)C)c1	17.8

Study 2
Target: Histone acetyltransferase KAT6A, both winged helices, GST fusion (KAT6A, Homo sapiens, UniProt Q92794, residues 1-181)
Technique: protein binding microarray
Form: double-stranded DNA, one strand shown
Matrix: in vitro
Tested at: not given
Setting: 8-mer, flanks averaged, mean of 2 arrays, mostly near background
Reference: not given
Direction: higher = stronger binding
Construct (chain): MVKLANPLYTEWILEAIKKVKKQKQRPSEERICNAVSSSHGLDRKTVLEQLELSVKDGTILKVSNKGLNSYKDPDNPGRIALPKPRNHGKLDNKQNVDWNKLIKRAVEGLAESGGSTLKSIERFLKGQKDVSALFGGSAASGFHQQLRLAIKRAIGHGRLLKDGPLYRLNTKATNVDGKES
Strand	E-score
CGATACCC	0.129
AGCTACAG	-0.153
AGCCCATA	-0.174
CAGACAGC	-0.0288
GCCACCGA	-0.0687
AGGATGGG	-0.249
ATATTAGG	-0.194
CAGCGTCC	0.127

Study 3
Target: Interferon regulatory factor 3, full length, phosphomimetic (IRF3, Homo sapiens, UniProt Q14653, residues 1-427, S386D/S396D/S398D/S402D/T404D/S405D)
Technique: protein-binding microarray
Form: double-stranded DNA, one strand shown
Matrix: in vitro
Tested at: 2540 nM top
Setting: 60-bp whole probe
Together with: salmon DNA 0.4 mg/ml
Reference: random background probes
Direction: higher = stronger binding
Shared flanks, not repeated: GCCTAGCAC … GTCTTGATTCGCTTGACGCTGCTG
Residues (chain): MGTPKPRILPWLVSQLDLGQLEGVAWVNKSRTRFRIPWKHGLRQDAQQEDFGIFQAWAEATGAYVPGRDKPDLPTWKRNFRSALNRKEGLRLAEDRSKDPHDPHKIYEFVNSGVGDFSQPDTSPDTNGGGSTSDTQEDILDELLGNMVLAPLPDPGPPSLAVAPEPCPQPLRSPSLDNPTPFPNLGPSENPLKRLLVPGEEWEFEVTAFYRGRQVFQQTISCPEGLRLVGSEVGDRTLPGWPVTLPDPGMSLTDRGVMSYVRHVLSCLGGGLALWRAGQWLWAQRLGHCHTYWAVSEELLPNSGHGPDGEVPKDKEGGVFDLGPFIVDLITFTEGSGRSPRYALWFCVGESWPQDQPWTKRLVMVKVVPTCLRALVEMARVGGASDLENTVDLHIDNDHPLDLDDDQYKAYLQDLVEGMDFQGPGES
Strand	fitted relative affinity [z-score]
GACTTTTTAGATTTTTTTTCGTGCTAG	1.26
TCATATATTCATATATAACTGTGCTAG	0.984
AAGAAGCTTCCTCTCTGCCAGTGCTAG	-0.2
GACGGACGGCTTATCCTGACGTGCTAG	-0.605
AGAGTGCTCATGCTTCTTAGGGTGCTA	-0.579
GACGGACTGGCGTTTCGGGACGTGCTA	0.279
TCACCTCCCCCTCTGCCACTGTGCTAG	0.191
GACGGTCTCGGACTGGGGACGTGCTAG	-0.00566

Study 4
Target: Sal-like protein 4, full length isoform B (SALL4, Homo sapiens, UniProt Q9UJQ4-2, residues 1-616)
Technique: universal PBM
Form: double-stranded DNA, one strand shown
Matrix: in vitro
Tested at: not given
Setting: 8-mer, flanks averaged, mean of replicates
Direction: higher = stronger binding
Strand	E-score
AACCAAAG	0.0998
CACGAACA	0.128
AGCCTGAG	-0.26
ATGACACG	0.0915
ACAACGAC	0.0402
ACTGAAGA	0.00874
ACAATGTA	0.214
CTACTTTC	0.0546

Further values, each from its own experiment
SMILES	cell line	test	test system	conditions	scale	quantity	result
CC(COc1ccccc1)N(CCCl)Cc1ccccc1 (stereo not drawn)	HEK-293T	pseudovirus infection, FDA-approved drug library screen	VSV pseudotyped with SARS-CoV-2 spike	10 µM, 16 h	reference: vehicle-treated	GFP-positive cells	89.3%
COC(=O)N[C@H](C(=O)N1CCC[C@H]1c1nc(-c2ccc(-c3ccc(-c4c[nH]c([C@@H]5CCCN5C(=O)[C@@H](NC(=O)OC)C(C)C)n4)cc3)cc2)c[nH]1)C(C)C	HEK-293T/ACE2	–	–	concentration not given, 16 (unit not given)	reference: vehicle	viability	104%
